{"data": "Published values pooled from the literature", "note": "Each line is one published result; not all experiments were run side by side. Several values in a cell are separate wells, animals, samples, runs or records. ± marks the error that the study gave."}
{"SMILES": "COc1cccc(OC)c1-c1cc(C(=O)NC2(C(=O)O)C3CC4CC(C3)CC2C4)nn1-c1ccc(C(=O)N(C)CCCN(C)CCCN(C)C(=O)[C@H](CCCCNC(=O)[C@H](CC(C)C)NC(=O)C2OC2C(=O)O)NC(=O)CN2CCN(CC(=O)[O-])CCN(CC(=O)[O-])CCN(CC(=O)[O-])CC2)cc1C(C)C.[177Lu+3] (mixture of isomers)", "test system": "mouse, HT-29 xenograft, brain", "setting": "72 h post injection", "quantity": "tissue uptake", "value": "0.014 %ID/g"}
{"SMILES": "O=C([O-])CN1CCN(CC(=O)[O-])CCN(Cc2cccc(C(=O)[O-])n2)CC1.[177Lu+3]", "test system": "mouse, spleen", "setting": "intravenous, 1 h", "quantity": "tracer uptake", "value": "0.24 %ID/g"}
{"SMILES": "CCCCN1C(=O)c2cccc3c(NCCCCN4CCOCC4)ccc(c23)C1=O", "test system": "methanol", "quantity": "fluorescence lifetime", "value": "8.8 ns"}
{"SMILES": "O=C(Nc1cnccc1-c1ccc([18F])cc1)c1ccnc(NC(=O)C2CC2)c1", "test": "ex vivo gamma counting", "test system": "GSK-3β transgenic mice, late-stage, skin", "setting": "intravenous, 120 min, mean, P-gp inhibitor pretreatment, added: tariquidar 15 mg/kg iv", "quantity": "SUV", "value": 0.27}
{"SMILES": "CN(Cc1ccccc1)C(=O)CN1CCN(CC(=O)[O-])CCN(CC(=O)[O-])CC1.[18F-].[Sc+3]", "test system": "mouse, muscle", "setting": "intravenous, 1 h", "quantity": "tracer uptake", "value": "0.11 %ID/g"}
{"SMILES": "OC1(C(F)(F)F)CCN(c2nc(Nc3ccnc(C(F)(F)F)c3)nc(-c3cccc(C(F)(F)F)n3)n2)C1 (stereo not shown)", "test system": "Sprague-Dawley rat, both sexes, plasma", "setting": "oral gavage, 10 mg/kg", "quantity": "AUC(0-t)", "value": "17100 ± 1090 ng·h/mL"}
{"SMILES": "O=C([O-])CN1CCN(CC(=O)[O-])CCN(C(CO)C(O)CO)CCN(CC(=O)[O-])CC1.[Dy+3] (stereo not shown)", "test system": "female cynomolgus monkey, plasma", "setting": "intravenous, dose not given", "quantity": "distribution half-life", "value": "1.97 min"}
{"SMILES": "Cc1ccc(OCC(=O)N(Cc2cccs2)c2ccn[nH]2)cc1", "test system": "monkey plasma", "setting": "750 ng/mL, 6 h, 37 °C, unit not given", "scale": "baseline: time zero", "quantity": "remaining compound", "value": 70.7}
{"SMILES": "CN([O-])C(=O)CN1CCNCCN(CC(=O)N(C)[O-])CC1.[89Zr+4]", "test": "radio-TLC", "test system": "human serum", "setting": "2 days, run 1", "quantity": "intact complex", "value": "100%"}
{"SMILES": "CC(C)c1cnc(-c2cc(Cl)ccc2F)cc1Nc1ccncc1C(=O)NC(CO)CO", "test system": "female C57BL/6 mice, plasma", "setting": "oral, 30 mg/kg twice daily, day 1, MC-38 tumour-bearing", "quantity": "unbound Cmax", "value": "127 nM"}
{"SMILES": "C=CC(=O)Nc1cc(Nc2nccc(-c3cn(C)c4ccccc34)n2)c(OC)cc1N(C)CCNC", "test": "storage stability", "test system": "human plasma", "setting": "10 d, -80 °C, MQC level", "quantity": "recovery", "value": "101%"}
{"SMILES": "O=C(Nc1cnccc1-c1ccc([18F])nc1)c1ccnc(NC(=O)C2CC2)c1", "test": "PET imaging", "test system": "FVB/NJ mice, both sexes, brain", "setting": "intravenous, 5 min post-injection, P-gp inhibited, added: tariquidar 15 mg/kg iv, 2 h before", "quantity": "SUV over first 5 min", "value": "0.22 ± 0.1"}
{"SMILES": "O=S1(=O)CC2CCCCC2CS1 (stereo not shown)", "test": "phase solubility, NMR", "test system": "water", "setting": "25 °C, added: hydroxypropyl-β-cyclodextrin 1009 mM", "quantity": "solubility", "value": "117 mM"}
{"SMILES": "Cc1nn(-c2nc3c(F)cc(F)cc3s2)c(O)c1C(c1ccc(C(F)(F)F)cc1)c1c(C)nn(-c2nc3c(F)cc(F)cc3s2)c1O", "test system": "ICR mouse, plasma", "setting": "intravenous, 5 mg/kg", "quantity": "AUMC extrapolated observed", "value": "18.3% and 65.9% and 39.6%"}
{"SMILES": "O=C1NC2(CC2)COc2ncc(F)cc2[C@H]2COCCN2c2ccn3ncc1c3n2", "test": "bone marrow micronucleus test", "test system": "NIH mice, male", "setting": "oral, 200 mg/kg/day, 3 days", "quantity": "micronucleus rate", "value": "1.15 ± 0.14 ‰"}
{"SMILES": "C=C(NC(=O)c1csc(-c2nc3c(cc2O)-c2nc(cs2)C(=O)NC(C(C)O)C(=O)NC(=C(C)OC)c2nc(cs2)C(=O)NC2c4nc(cs4)C(=O)NC(COC(=O)c4c5c6c(cccc6n4O)COC(=O)C(OC4CC(C)(O)C(N(C)C)C(C)O4)C2OC5)c2nc-3cs2)n1)C(N)=O (stereo not shown)", "test system": "ICR mice, Streptococcus pneumoniae ATCC 49169 infected, immunocompromised, blood", "setting": "intravenous, 8 mg/kg/day three times daily", "quantity": "Tmax", "value": "365 min"}
{"SMILES": "Cc1[nH]nc2c1N=C(c1ccccc1Cl)c1cnc(N3CCOCC3)cc1N2", "test system": "nude mouse HCC1806 xenograft, plasma", "setting": "oral, 15 mg/kg once daily", "quantity": "Tmax", "value": "30 min"}
{"SMILES": "Cc1ncsc1-c1ccc(CNC(=O)[C@@H]2C[C@@H](O)CN2C(=O)[C@@H](NC(=O)COCC(C)(COCCOCCOCCNC(=O)C[C@@H]2N=C(c3ccc(Cl)cc3)c3c(sc(C)c3C)-n3c(C)nnc32)COCCOCCOCCNC(=O)C[C@@H]2N=C(c3ccc(Cl)cc3)c3c(sc(C)c3C)-n3c(C)nnc32)C(C)(C)C)cc1", "test system": "male C57BL/6 mouse, plasma", "setting": "intravenous, 5 mg/kg, 4.98 min, single dose", "quantity": "concentration", "value": "34900 ng/mL"}
{"SMILES": "COc1cccc(OC)c1-c1cc(C(=O)NC2(C(=O)O)C3CC4CC(C3)CC2C4)nn1-c1ccc(C(=O)NCCNC(=O)[C@H](CCCCNC(=O)[C@H](CC(C)C)NC(=O)C2OC2C(=O)O)NC(=O)CN2CCN(CC(=O)[O-])CCN(CC(=O)[O-])CCN(CC(=O)[O-])CC2)cc1C(C)C.[177Lu+3] (mixture of isomers)", "test system": "mouse, HT-29 xenograft", "setting": "4 h post injection, biodistribution", "scale": "baseline: tumour over muscle uptake", "quantity": "tumour-to-muscle ratio", "value": 15}
{"SMILES": "O=C(NS(=O)(=O)c1cccs1)c1cc2ccccc2n1Cc1ccc(Br)c2ccccc12", "test system": "KM mouse, chronic hyperuricaemia model", "setting": "dose not given, day 8", "quantity": "body weight", "value": "29.2 g and 29.8 g and 28.4 g and 24.9 g and 28 g and 30.3 g"}
{"SMILES": "O=c1c2ccccc2[se]n1CCCCCCn1[se]c2ccccc2c1=O", "test": "shake-flask, RP-HPLC", "test system": "dichloromethane", "setting": "24 h, 25 °C", "quantity": "solubility", "value": "3170 ± 160 µg/mL"}
{"SMILES": "O=C(c1ccccc1)N1C(c2ccc(OCC3CCN(CCCF)C3)cc2)c2ccc(O)cc2CC12CC2 (stereo not shown)", "test system": "C57BL/6J mouse, plasma", "setting": "oral, 25 mg/kg, group mean", "quantity": "AUC(0-inf)", "value": "2930 ng·h/mL"}
{"SMILES": "C=CC(=O)Nc1cc(Nc2nccc(-c3c[nH]c4ccccc34)n2)c(OC)cc1N(C)CCN(C)C", "test": "storage stability", "test system": "human dried blood spot", "setting": "2 h, -80 °C, LQC level", "quantity": "recovery", "value": "101%"}
{"SMILES": "COc1cc(OCCN2CCOCC2)cnc1-c1nc2cc(OC(F)(F)F)ccc2[nH]1", "test system": "Balb/c mouse, female, plasma", "setting": "oral gavage, 100 mg/kg", "quantity": "CL/F", "value": "2.57 mL/min"}
{"SMILES": "CN1CCCNC(=O)c2cccc(c2)C(=O)NCCCN(C)CCCNc2cccc3c2C(=O)c2cccc(c2C3=O)NCCC1", "test system": "mice, serum", "setting": "dose not given", "quantity": "BUN", "value": "24.8 mg/dL"}
{"SMILES": "COc1ccc2c(c1)C(C)(C)C(/C=C/C1=C(Oc3ccc(C(=O)NCCCCOc4cc(CN(Cc5ccccn5)Cc5ccccn5)cc(CN(Cc5ccccn5)Cc5ccccn5)c4)cc3)C(=C/C=C3/N(CCCCS(=O)(=O)[O-])c4ccc(OC)cc4C3(C)C)CCC1)=[N+]2CCCCS(=O)(=O)[O-].O=[N+]([O-])[O-].O=[N+]([O-])[O-].[99Tc+].[C-]#[O+].[C-]#[O+].[C-]#[O+].[Zn+2]", "test system": "mouse, blood", "setting": "12 h", "quantity": "tracer uptake", "value": "0.62 %ID/g"}
{"SMILES": "CN(O)C(=O)CCC(=O)NCCCN(CCCCN(CCCNC(=O)CCC(=O)N(C)O)C(=O)CCC(=O)N(C)O)C(=O)CCC(=O)N(C)O.[89Zr]", "test": "radio-TLC", "test system": "aqueous buffer", "setting": "1 d, pH 7.2, 37 °C, 89Zr-labelled complex, added: FeCl3 10-fold excess", "quantity": "intact complex", "value": "97.6 ± 0.4%"}
{"SMILES": "N#C[C@@H]1CC(F)(F)CN1C(=O)CNC(=O)c1ccnc2ccc(OCCCN3CCN(C(=O)CCc4ccc(O)c(CN5CCN6CC(=O)[O][Al-]([18F])([O]C(=O)C5)[O]c5ccc(CCC(=O)N7CCN(CCCOc8ccc9nccc(C(=O)NCC(=O)N%10CC(F)(F)C[C@H]%10C#N)c9c8)CC7)cc5C6)c4)CC3)cc12 (stereo partly shown)", "test": "radio-TLC", "test system": "CD-1 mice, plasma", "setting": "intravenous, 60 min post-injection", "quantity": "radiochemical purity", "value": "86 ± 7.2%"}
{"SMILES": "COc1cccc(OC)c1-c1cc(C(=O)NC2(C(=O)O)C3CC4CC(C3)CC2C4)nn1-c1ccc(C(=O)N(C)CCOCCN(C)C(=O)[C@H](CCCCNC(=O)[C@H](CC(C)C)NC(=O)C2OC2C(=O)O)NC(=O)CN2CCN(CC(=O)[O-])CCN(CC(=O)[O-])CCN(CC(=O)[O-])CC2)cc1C(C)C.[177Lu+3] (mixture of isomers)", "test system": "mouse, HT-29 xenograft, spleen", "setting": "24 h post injection", "quantity": "tissue uptake", "value": "0.81 %ID/g"}
{"SMILES": "N#C[C@@H]1CCCN1C(=O)CNC(=O)c1ccnc2ccc(OCCCN3CCN(C(=O)CCc4ccc(O)c(CN5CCN6CC(=O)[O][Al-]([18F])([O]C(=O)C5)[O]c5ccc(CCC(=O)N7CCN(CCCOc8ccc9nccc(C(=O)NCC(=O)N%10CCC[C@H]%10C#N)c9c8)CC7)cc5C6)c4)CC3)cc12 (stereo partly shown)", "test": "radio-TLC", "test system": "CD-1 mice, plasma", "setting": "intravenous, 60 min post-injection", "quantity": "radiochemical purity", "value": "87.9 ± 4.6%"}
{"SMILES": "O=C([O-])CN1CCN(CC(=O)[O-])CCN(CC(=O)[O-])CC1.[44Sc+3]", "test system": "mouse, blood", "setting": "intravenous, 1 h", "quantity": "tracer uptake", "value": "0.28 %ID/g"}
{"note": "For quick reference, copied from above:"}
{"SMILES": "O=C(Nc1cnccc1-c1ccc([18F])cc1)c1ccnc(NC(=O)C2CC2)c1", "test": "ex vivo gamma counting", "test system": "GSK-3β transgenic mice, late-stage, skin", "setting": "intravenous, 120 min, mean, P-gp inhibitor pretreatment, added: tariquidar 15 mg/kg iv", "quantity": "SUV", "value": 0.27}
{"SMILES": "COc1cccc(OC)c1-c1cc(C(=O)NC2(C(=O)O)C3CC4CC(C3)CC2C4)nn1-c1ccc(C(=O)N(C)CCOCCN(C)C(=O)[C@H](CCCCNC(=O)[C@H](CC(C)C)NC(=O)C2OC2C(=O)O)NC(=O)CN2CCN(CC(=O)[O-])CCN(CC(=O)[O-])CCN(CC(=O)[O-])CC2)cc1C(C)C.[177Lu+3] (mixture of isomers)", "test system": "mouse, HT-29 xenograft, spleen", "setting": "24 h post injection", "quantity": "tissue uptake", "value": "0.81 %ID/g"}
